Experimental data pooled from the literature.
A part holds a random share of what one study measured. Substitutions count along the parent as printed.

Block 1 — method: protein-binding microarray; form: double-stranded DNA, one strand shown; matrix: in vitro; tested at: not given; direction: higher = stronger binding
Target: TATA-box-binding protein 1 (TBP1, Arabidopsis thaliana, UniProt P28147, residues 1-200, full length assumed)
Setting: k-mer, scored over probes, only values ≥0.25
Target sequence (chain): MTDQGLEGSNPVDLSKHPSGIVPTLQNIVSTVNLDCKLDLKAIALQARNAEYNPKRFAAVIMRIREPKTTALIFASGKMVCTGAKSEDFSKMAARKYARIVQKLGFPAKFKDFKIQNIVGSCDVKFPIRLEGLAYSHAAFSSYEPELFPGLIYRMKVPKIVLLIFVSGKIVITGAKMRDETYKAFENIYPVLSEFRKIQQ
| Oligonucleotide | E-score |
| --- | --- |
| ATATTTA | 0.469 |
| CATATAG | 0.316 |
| AATATCG | 0.278 |
| TATCCAA | 0.278 |
| AATACAC | 0.276 |
| GATAATA | 0.356 |
| ATAAGAC | 0.274 |
| ATAAGAA | 0.332 |

Block 2 — method: DHFR PCA, deep sequencing; matrix: yeast; together with: (+)-ABA 58 µM; relative to: wild-type fitted maximum; direction: higher = stronger binding
Target: ABI1, truncated, D143A, DHFR fusion (Arabidopsis thaliana)
Setting: methotrexate growth selection, single substitutions
Starting sequence: PYL1, truncated, DHFR fusion (Arabidopsis thaliana); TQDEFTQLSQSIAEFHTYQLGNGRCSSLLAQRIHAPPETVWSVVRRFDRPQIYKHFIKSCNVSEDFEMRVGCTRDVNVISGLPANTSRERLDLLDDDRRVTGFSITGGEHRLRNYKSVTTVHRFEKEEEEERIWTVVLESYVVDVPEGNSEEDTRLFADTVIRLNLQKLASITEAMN
| Variant | relative binding score [%] |
| --- | --- |
| R132N | 99.1 |
| F15D | 29.3 |
| R45I | -3.74 |
| W134V | 95.6 |
| I105P | -27.5 |
| K126V | 97.2 |
| Y18K | 75.8 |
| R49G | 45.8 |

Block 3 — method: protein-binding microarray; form: double-stranded DNA, one strand shown; matrix: in vitro; tested at: 250 nM; setting: 60-bp whole probe; together with: salmon DNA 0.4 mg/ml; relative to: random background probes; direction: higher = stronger binding; shared flanks, not repeated: GCCTAGCAC … GTCTTGATTCGCTTGACGCTGCTG
Target: Interferon regulatory factor 5, full length, phosphomimetic (IRF5, Homo sapiens, UniProt Q13568-2, residues 1-514, K96S/S451D/S453D/S456D/S462D)
| Oligonucleotide | log fluorescence |
| --- | --- |
| GTGTACATCTCTCTTAAATAGTGCTAG | 0.162 z-score |
| ATGGCAAAAAAAAAAGATTTGTGCTAG | 0.225 z-score |
| GACGGTTTCTTTATCCTGACGTGCTAG | 1.05 z-score |
| TTAGAACCGAGTTTCGATTAGTGCTAG | 9.04 z-score |
| GACGATTTCGGCTATCGAGACGTGCTA | 4.15 z-score |
| TCATGTTTGAGTCTTCTACTGTGCTAG | 0.383 z-score |
| GACGGTCTCCTACTGCTAACGTGCTAG | -0.456 z-score |
| GACGGGCTGGGACTGGGGACGTGCTAG | -0.803 z-score |

Further values, each from its own experiment — starting sequence: viral docking peptide; KGVKRKLFAEDSS
| Variant | target | test | test system | setting | scale | measurement | result |
| --- | --- | --- | --- | --- | --- | --- | --- |
| V3W | CCNA2, cyclin fold, Cln2 fusion (human) | yeast growth competition, sequencing | yeast | strong parent motif | relative to: not given, higher = stronger binding | normalised enrichment score | 4.25 |

Some of these lines once more (block 3):
| Oligonucleotide | log fluorescence |
| --- | --- |
| TCATGTTTGAGTCTTCTACTGTGCTAG | 0.383 z-score |
| GACGGTCTCCTACTGCTAACGTGCTAG | -0.456 z-score |
